Published values pooled from the literature.
Every numbered part comes from another study and shows a few of its results, in no order. Values joined by “and” are separate records of one study, mostly repeats; a detail may differ.

Sample 1
Cell line: normal organoid sample E
Method: CellTiter-Glo
Host: human
Matrix: normal-adjacent epithelium
Concentration: 1 µM
Baseline: DMSO
Measurement: viability
Cc1nc(N2CC[C@@H](O)C2)ncc1-c1cc(C(F)(F)F)cc2[nH]ncc12: 103% and 99.3%
Cc1c(NC(=O)c2ccc(C(C)(C)C)cc2)cccc1-c1cn(C)c(=O)c(Nc2ccc(C(=O)N3CCOCC3)cc2)n1: 95.6% and 78.7%
Cc1c(Oc2ccc(F)cc2)c(OC(C)C)nn1-c1ccc(C2CC2)cn1: 113% and 98.9%
CC(=O)N1CCC(c2ccc(C(=O)NC(=N)N)cc2C(F)(F)F)CC1: 92.2% and 100%
Cn1cc(Cl)c2c(Oc3c(F)cc(Nc4cc(Cl)nc(N)n4)cc3F)ccnc21: 116% and 256%
C[C@H](NC(=O)Nc1cc2[nH]ncc2c(CO)n1)c1ccccn1: 126% and 122%
Cc1ccc2nc(CNCCCOc3ccccc3)cc(O)c2c1: 117%
O=C1NC(c2ccccn2)Sc2ccccc21 (stereo not drawn): 95% and 127%
CC(=O)Nc1c(C(C)=O)c(=O)n(C)c2nc(-c3ccc(Cl)cc3Cl)c(-c3ccc(Cl)cc3)cc12: 117% and 91.9%
c1ccc(N2CCN(Cc3nc4ccccc4[nH]3)CC2)nc1: 140% and 129%
O=C(N1CCS(=O)(=O)CC1)N1C[C@H](c2ccc(OC(F)(F)F)cc2)C[C@H](c2nc(C3CC3)no2)C1: 128% and 51.1%
O=C(Nc1cnc(Oc2ccc(F)cc2)nc1)N1CCc2ncccc2[C@@H]1c1ccc(F)cc1: 184% and 150%

Sample 2
Cell line: mouse MPNST tumor cells
Method: high-content immunofluorescence imaging
Measured: nuclear SOX9
Concentration: 10 µM
Time: 12 h
Setting: mean of 2 replicates
Baseline: DMSO control
Direction: higher = more nuclear SOX9
Measurement: nuclear SOX9 intensity
O=C(Nc1cccnc1)c1cc(-c2ccnc(F)c2)ccc1OCc1ccccc1: 118 % of DMSO
CCC(=O)OCC(=O)[C@@]1(OC(=O)CC)[C@@H](C)C[C@H]2[C@@H]3CCC4=CC(=O)C=C[C@]4(C)[C@@]3(Cl)[C@@H](O)C[C@@]21C: 93 % of DMSO
CS(=O)(=O)N(Cc1ccco1)C[C@@H](O)Cn1c2ccccc2c2ccccc21: 97.9 % of DMSO
CC(=O)Nc1c(I)c(NC(C)=O)c(I)c(C(=O)O)c1I: 98.5 % of DMSO
Nc1nc(Cl)nc2c1ncn2[C@@H]1O[C@H](CO)[C@@H](O)[C@H]1O: 105 % of DMSO
CC1(C)OC(=O)NC1=O: 101 % of DMSO
Cn1c(NCCN(CCO)CCCc2ccc([N+](=O)[O-])cc2)cc(=O)n(C)c1=O: 90.4 % of DMSO
CN(C)[C@@H]1CCN(c2cc(-c3ccccc3)nc3ccnn23)C1: 127 % of DMSO
CCc1cc(C(N)=S)ccn1: 106 % of DMSO

Sample 3
Structure (SMILES): COc1ccc(-c2c(Nc3ccccn3)[nH]c3c(C4=CCCCC4)c(-c4ccccc4)nn3c2=O)cc1
Matrix: plasma
Route: oral
Measurement: plasma concentration, geometric mean
cancer patients; 400 mg, 8 h post-dose, single dose: 977 ng/mL
human patients; 150 mg once daily, 0.5 h, cycle 1: 3190 ng/mL
cancer patients; 400 mg, 0.5 h post-dose, single dose: 80.7 ng/mL
cancer patients; 100 mg, 48 h post-dose, single dose: 315 ng/mL
human patients; 200 mg once daily, 4 h, cycle 1: 4840 ng/mL
cancer patients; 400 mg, 6 h post-dose, single dose: 1110 ng/mL
LC-MS/MS; human; 50 mg once daily, 3 h, cycle 1: 1570 ng/mL
human patients; 200 mg once daily, 24 h, cycle 1: 3780 ng/mL
LC-MS/MS; human; 50 mg once daily, 4 h, cycle 1: 1540 ng/mL
LC-MS/MS; human; 200 mg twice daily, 8 h, single dose: 1280 ng/mL
human patients; 150 mg once daily, 3 h, cycle 1: 4670 ng/mL
cancer patients; 150 mg, 48 h post-dose, single dose: 315 ng/mL
cancer patients; 200 mg, 8 h post-dose, single dose: 1260 ng/mL
LC-MS/MS; human; 50 mg once daily, 2 h, cycle 1: 1300 ng/mL
cancer patients; 100 mg, 8 h post-dose, single dose: 951 ng/mL

Sample 4
Target: Ephrin type-A receptor 7 (EPHA7, Homo sapiens, UniProt Q15375)
Chain of UniProt Q15375 (whole entry, looked up): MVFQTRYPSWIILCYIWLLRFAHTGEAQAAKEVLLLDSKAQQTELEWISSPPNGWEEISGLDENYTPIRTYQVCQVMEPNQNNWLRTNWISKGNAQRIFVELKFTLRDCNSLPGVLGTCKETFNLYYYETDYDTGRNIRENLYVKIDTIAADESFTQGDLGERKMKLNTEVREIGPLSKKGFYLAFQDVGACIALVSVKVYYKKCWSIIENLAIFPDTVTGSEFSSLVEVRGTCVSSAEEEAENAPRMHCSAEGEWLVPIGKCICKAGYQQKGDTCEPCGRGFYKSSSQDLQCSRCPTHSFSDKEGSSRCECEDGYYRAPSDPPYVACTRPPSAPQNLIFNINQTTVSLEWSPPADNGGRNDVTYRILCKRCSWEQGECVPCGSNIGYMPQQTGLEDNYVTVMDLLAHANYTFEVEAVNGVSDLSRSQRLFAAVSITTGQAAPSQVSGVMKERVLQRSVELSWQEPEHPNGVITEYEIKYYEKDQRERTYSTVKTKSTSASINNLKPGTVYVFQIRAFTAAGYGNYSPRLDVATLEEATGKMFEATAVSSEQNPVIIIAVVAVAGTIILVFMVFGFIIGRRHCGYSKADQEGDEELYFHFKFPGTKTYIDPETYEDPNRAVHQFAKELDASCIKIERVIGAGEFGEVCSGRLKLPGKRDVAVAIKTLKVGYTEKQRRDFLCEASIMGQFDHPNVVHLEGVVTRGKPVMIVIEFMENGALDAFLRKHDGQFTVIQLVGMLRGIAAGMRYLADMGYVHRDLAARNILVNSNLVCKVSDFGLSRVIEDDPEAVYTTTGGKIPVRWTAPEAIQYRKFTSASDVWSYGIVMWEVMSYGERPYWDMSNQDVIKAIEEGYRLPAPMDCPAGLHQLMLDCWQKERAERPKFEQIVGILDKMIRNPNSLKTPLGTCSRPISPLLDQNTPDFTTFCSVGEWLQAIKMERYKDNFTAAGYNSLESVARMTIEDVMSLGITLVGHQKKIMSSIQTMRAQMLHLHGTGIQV
Effect on: enzyme activity
Mode: inhibitor
Concentration: 0.5 µM
Baseline: control
Measurement: remaining activity
Cc1nc2cc3nc(-c4cccs4)cnc3cc2n1C: 92.5%
COc1cc2c(cc1OC)-c1[nH]nc(Nc3cccc(F)c3)c1C2: 98%
CCN(CC)C(=O)c1ccc(Nc2nc(OCC3CCCCC3)c3[nH]cnc3n2)cc1: 72.8%
O=C(NC(NC(=S)Nc1ccc(F)c([N+](=O)[O-])c1)C(Cl)(Cl)Cl)C(c1ccccc1)c1ccccc1 (stereo not drawn): 109%
CCOc1nc(NC(=O)Cc2cc(OC)ccc2OC)cc(N)c1C#N: 108%
C[C@@H]1CCN(C(=O)CC#N)C[C@@H]1N(C)c1ncnc2[nH]ccc12: 89%
CN([C@@H](Cc1ccc(OS(=O)(=O)c2cccc3cnccc23)cc1)C(=O)N1CCN(c2ccccc2)CC1)S(=O)(=O)c1cccc2cnccc12: 102%
CN(C)C[C@H]1CCn2c(c(C3=C(c4cn(C)c5ccccc45)C(=O)NC3=O)c3ccccc32)C1: 96.9%
c1ccc(-c2[nH]ncc2-c2ccnc3ccccc23)nc1: 91.4%
Cn1nc2c3c(cccc31)C(=O)c1ccccc1-2: 104%
O=C1c2ccccc2-c2n[nH]c3cccc1c23: 90.9%
N#C/C(=C\c1ccc(O)c(O)c1)C(=O)NCc1ccccc1: 89.7%
COc1cc2ncnc(Nc3ccc(O)c(Br)c3)c2cc1OC: 46.1%
CCN(CC)CCNC(=O)c1c(C)[nH]c(/C=C2\C(=O)Nc3ccc(F)cc32)c1C: 50.8%
Cc1cn(-c2cc(NC(=O)c3ccc(C)c(Nc4nccc(-c5cccnc5)n4)c3)cc(C(F)(F)F)c2)cn1: 86.4%
Nc1cccc(-c2cc3c(Oc4cccc(O)c4)ncnc3[nH]2)c1: 77.2%
Cc1cc2ncc(-c3ccccc3)nc2cc1C: 96.6%
O=c1cc(-c2cccc3c2Sc2ccccc2S3)oc(N2CCOCC2)c1: 106%
O=C1C(Cl)=C(N2C(=O)CCC2=O)C(=O)c2ccccc21: 106%
Ic1cccc(CSc2nnc(-c3ccncc3)o2)c1: 100%
c1ccc(-c2cnc(Nc3ccc(OCCN4CCCC4)cc3)s2)cc1: 98%
CCN(CC)CCNC(=O)c1c(C)[nH]c(/C=C2\C(=O)Nc3ccc(Cl)cc32)c1C: 67.1%
O=C(Nc1cccc(Nc2nccc(Nc3cccc(C(F)(F)F)c3)n2)c1)C1CC1: 112%
COc1cc2ncnc(Nc3cccc(Cl)c3)c2cc1OC: 65%
